Results pooled from the literature.
Lines come from different studies, so protocols differ. ± gives the spread as reported.

SMILES | test | test system | conditions | how to read | measurement | value
Cc1cc(-c2nccc3c2ccn3CC(=O)Nc2ccc(-c3cnccn3)cn2)ccn1 |  | healthy human volunteers | oral, 15 mg once daily, 14 days, multiple ascending dose |  | respiratory thoracic mediastinal TEAEs | 11.1%
CCOC(=O)C1=C(CN2CCC[C@@H]2C(=O)Nc2ccc(B(O)O)cc2)NC(c2nccs2)=N[C@H]1c1ccc(F)cc1Br |  | ICR mouse, plasma | intravenous, 2 mg/kg |  | volume of distribution (Vz) | 4.7 ± 1.26 L/kg
C=CC(=O)N1CCC(Oc2cc3c(Nc4ccc(Cl)c(Cl)c4F)ncnc3cc2OC)CC1 |  | Sprague-Dawley rat, male, plasma | oral, 2 mg/kg, 1 weeks pretreatment, together with: Schisandrin A 20 mg/kg daily pretreatment |  | MRT(0-t) | 5.49 ± 0.81 h
CS(=O)(=O)c1ccc([C@@H](O)[C@@H](CF)NC(=O)C(Cl)Cl)cc1 |  | Arbor Acres chickens, plasma | oral, 20 mg/kg, together with: quercetin 60 mg/kg pretreatment |  | MRT(0-inf) | 3.78 ± 0.32 h
O=S(=O)(O)Oc1ccc(CCO)cc1O |  | human CSF | concentration not given, mean |  | CSF concentration | not detected
CCN1/C(=C/C(C)=O)Sc2ccc(F)cc21 |  | cynomolgus monkey | oral, 10 mg/kg, 4 h post-dose | reference: pre-dose | QTc interval change | 100 ± 1%
Cl.[2H]C([2H])([2H])CC(=O)c1cnc(NC(=O)C2CC2)cc1Nc1cccc(-c2ncn(C([2H])([2H])[2H])n2)c1OC |  | human, fasted, multiple dose | oral, 20 mg once daily, tablet, day 14, geometric mean |  | half-life | 9.18 h
Cc1ccc(C(=O)N(CCCN)C(c2nc3snc(C)c3c(=O)n2Cc2ccccc2)C(C)C)cc1 (stereo not drawn) |  | human patients | intravenous, 13 mg/day |  | grade ≥3 dysphagia patients | 33%
CN(CCC(=O)O)C(=O)c1ccc2c(c1)CC[C@@H]1[C@@H]2CC[C@]2(C)C(c3cncc(F)c3)=CC[C@@H]12 |  | premenopausal women, endometriosis pain, serum | 60 mg twice daily, visit 5, median | reference: baseline | indirect bilirubin change | 0.29 mg/dL
CCn1cc(C(=O)N2CCOCC2)c(=O)c2cc(NC3Cc4ccccc4C3)cnc21 |  | human, fed | oral suspension, 600 mg/day twice daily, day 1, arithmetic mean |  | half-life | 3.43 h
CO[C@@H]1[C@H](OC(=O)N2CC(CCN3CCOCC3)C2)CC[C@]2(CO2)[C@H]1[C@@]1(C)O[C@@H]1CC=C(C)C |  | humans | subcutaneous, 0.6 mg twice weekly for 4 weeks, day 28 | reference: baseline | systolic blood pressure | 2.1 ± 9 mmHg
O=C(CCCCCCC(=O)Nc1ccc(CC[18F])cc1)NO |  | athymic nu/nu male mice, LNCaP xenograft, brain | intravenous, 0.5 h |  | tissue uptake | 1 ± 0.12 %ID/g
COc1ccnc(C(=O)N[C@H]2COC(=O)[C@H](Cc3ccccc3)[C@@H](O)[C@H](C)OC2=O)c1O | FOCUS PEARL groundwater modelling | soil | geometric mean input |  | KOC | 673 mL/g
CO[C@@H]1[C@H](O)[C@@H](CO)O[C@H]1n1c([N+](=O)[O-])nc2c(=O)[nH]c(N)nc21 | depurination, RP-HPLC | citrate-phosphate buffer 0.5 mM | 480 min, pH 2, 37 °C |  | nucleoside remaining fraction | 0.591
CNc1ccc(-c2nc3ccc(O)cc3s2)cc1 [carbon-11 labelled] | ex vivo biodistribution | normal B6SJL mice, caudate nucleus | intravenous, 30 min |  | uptake | 0.169 ± 0.041 SUV
C=CCN1CC(=O)N2[C@@H](Cc3ccc(O)cc3F)C(=O)N(Cc3cccc(N4CC(N5CCN(CC)CC5)C4)n3)C[C@@H]2N1C(=O)NCc1ccccc1 |  | advanced solid tumour patients | oral, 20 mg twice daily, grade ≥3, dose-escalation |  | treatment-related AST increased | 0%
CC(C)NC(=O)COc1cccc(-c2nc(Nc3ccc4[nH]ncc4c3)c3ccccc3n2)c1 |  | human, male, fed, plasma | oral, 200 mg, day 3, geometric mean |  | AUC(0-tau) | 9.33 µg·h/mL
N#Cc1ccc2c(c1)[C@H]1CCCN(C(=O)c3ccc4[nH]cnc4c3)[C@H]1C2 |  | human, male | 160 mg, day 15 |  | DHEA-S level | 9.5 µmol/L
CN(C(=O)n1cnc(-c2cccnc2)c1)[C@H]1CC[C@H](O)CC1 |  | Wistar rat, pons | oral, 10 mg/kg of BIA 10-2474, 1 h, single dose |  | concentration | 15 ± 0.5 ng/g
CN(CCC#N)C1CCN(C(=O)Cn2cc(NC(=O)c3cnn4cccnc34)c(-c3cc(Cl)ccc3OC(F)F)n2)CC1 |  | human, single ascending dose | 0.5 mg, day 4 | reference: baseline | reticulocyte count change | 1.7 10⁹/L
CCCCOC(=O)N1CCN(C(=O)[C@H](CP(=O)(O)O)NC(=O)c2cc(N3CC[C@H](OC)C3)nc(-c3ccccc3)n2)CC1 | measured: haematocrit | human, blood | 16 mg, 24 h post-dose |  | change from baseline | 0 ± 0.021 L/L
C[C@H](CS)C(=O)N1CCC[C@H]1C(=O)O |  | male Hartley guinea pigs, anaesthetized | intravenous, 10 mg/kg over 10 min, after infusion |  | heart rate | 235 ± 0.3 beats/min
CC[C@H](C)[C@H](NC(=O)[C@H](Cc1ccccc1)NC(=O)[C@H](CCC(=O)O)NC(=O)[C@H](CCCCNC(=O)COCCOCCNC(=O)COCCOCCNC(=O)CC[C@H](NC(=O)CCCCCCCCCCCCCCCCC(=O)O)C(=O)O)NC(=O)[C@H](C)NC(=O)[C@H](C)NC(=O)[C@H](CCC(N)=O)NC(=O)CNC(=O)[C@H](CCC(=O)O)NC(=O)[C@H](CC(C)C)NC(=O)[C@H](Cc1ccc(O)cc1)NC(=O)[C@H](CO)NC(=O)[C@H](CO)NC(=O)[C@@H](NC(=O)[C@H](CC(=O)O)NC(=O)[C@H](CO)NC(=O)[C@@H](NC(=O)[C@H](Cc1ccccc1)NC(=O)[C@@H](NC(=O)CNC(=O)[C@H](CCC(=O)O)NC(=O)C(C)(C)NC(=O)[C@@H](N)Cc1cnc[nH]1)[C@@H](C)O)[C@@H](C)O)C(C)C)C(=O)N[C@@H](C)C(=O)N[C@@H](Cc1c[nH]c2ccccc12)C(=O)N[C@@H](CC(C)C)C(=O)N[C@H](C(=O)N[C@@H](CCCNC(=N)N)C(=O)NCC(=O)N[C@@H](CCCNC(=N)N)C(=O)NCC(=O)O)C(C)C | 12-lead Holter ECG | healthy humans | subcutaneous, 1.5 mg once weekly, 42 h, steady state | reference: placebo | QT change from baseline | -24.6 ms

SMILES | test | test system | conditions | how to read | measurement | value
CNCc1ccc(-c2[nH]c3cc(F)cc4c3c2CCNC4=O)cc1 |  | patients | oral, 840 mg twice daily, all grades |  | anaemia incidence | 33.3%
COc1cc(C(=O)N2CCC3(CC2)CC(=O)c2c(cnn2C(C)C)C3)cc(-c2ccc(C(=O)O)cc2)n1 | measured: direct LDL cholesterol | human, fasting serum | 3 mg every 12 h, day 13, adjusted geometric mean | reference: baseline | percentage change from baseline | 2%
CN[C@@H]1COc2c(S(=O)(=O)NC(=O)Nc3c4c(cc5c3CCC5)CCC4)cnn2C1 |  | human, plasma | oral, 900 mg twice daily, D8 |  | predose plasma concentration | 5220 ng/mL
O=C(O)[C@H]1O[C@@H](Oc2cc(O)c3c(=O)c(O)c(-c4ccc(O)c(O)c4)oc3c2)[C@H](O)[C@@H](O)[C@@H]1O |  | human CSF | concentration not given, mean |  | CSF concentration | not detected
NCCOCCOCCNCc1ccc(CNC(=O)c2csc3nc[nH]c(=O)c23)cc1 | haemolysis | human red blood cells | 1 h, 37 °C |  | EC50 | > 100 µM
CCO[C@H]1CCN(Cc2c(OC)cc(C)c3[nH]ccc23)[C@H](c2ccc(C(=O)O)cc2)C1 |  | PNH patients, active haemolysis | oral, 100 mg, 8 weeks, treatment |  | incidence of abdominal pain | 0%
COc1cc(C2=CCCc3c2ccc(OC)c3OCc2ccc([N+](=O)[O-])s2)cc(OC)c1OC | non-enzymatic, no POR | phosphate buffer | 24 h, pH 7.4 |  | parent drug release | 0%
O=C(Nc1nc2cccc(-c3ccc(CN4CCS(=O)(=O)CC4)cc3)n2n1)C1CC1 | measured: asthenia | human rheumatoid arthritis patients | oral, 200 mg once daily, 4 weeks, regardless of relatedness |  | treatment-emergent adverse events | 0%
CNC(=O)c1ccc(-c2cnc3ncc(Cc4ccc5ncccc5c4)n3n2)cc1F | measured: Cough, all grades | gastric cancer patients | oral, 600 mg twice daily, expansion cohort, any causality |  | patients with adverse event | 0%
Cc1cc(OCCOCCC(F)(F)P(=O)(O)O)ccc1CCc1cnc2c(N)nc3cc(CCC(=O)O)ccc3c2c1 |  | human, serum | intratumoral, 100 µg every 2 weeks, cycle 1 day 1 |  | AUC(tau) | 0.015 µg·h/mL
O=C1Cc2cc(CCN3CCN(c4nsc5ccccc45)CC3)c(Cl)cc2N1 |  | male Hartley guinea pigs, anaesthetized | intravenous, 1 mg/kg over 10 min, after infusion |  | heart rate | 171 ± 0.5 beats/min
C[C@@H](Nc1cc(F)cc(F)c1)c1cc(C(=O)N(C)C)cc2c(=O)cc(N3CCOCC3)oc12 | measured: Neutropenia | advanced solid tumour patients | oral, dose not given, dose expansion |  | related serious adverse events | 0%
CCCCC[C@H](O)CC[C@@H]1[C@H]2Cc3cccc(OCC(=O)O)c3C[C@H]2C[C@H]1O | LC-MS/MS | female Japanese PAH patients, plasma | inhaled, 54 µg |  | geometric mean Cmax | 0.00103 µg/mL
O=C1c2ccncc2C(=O)c2c1[nH]c1ccccc21 |  | Sprague-Dawley rat, female, lung | oral, 5 mg/kg, 24 h |  | tissue concentration | 0.021 ± 0.03 nmol/mg
[18F]c1ccc(-c2ccc3c(c2)[nH]c2ccncc23)cn1 | ex vivo biodistribution | normal B6SJL mice, gut | intravenous, 30 min |  | uptake | 2.73 ± 1.39 SUV
CC(=O)N[C@H]1[C@H]([C@H](O)[C@H](O)CO)OC(C(=O)O)=C[C@@H]1N=C(N)N | HPLC | HBSS | 5 µg/mL, time not given, three freeze-thaw cycles |  | recovery | 97.4%
C[C@H]1CNCCCN1S(=O)(=O)c1cccc2cncc(F)c12 | measured: Diarrhea | healthy adult men | topical ocular, 1 drop per eye twice daily, 8 days |  | adverse events | 0%
CC1(C)S[C@@H]2[C@H](NC(=O)[C@H](N)c3ccc(O)cc3)C(=O)N2[C@H]1C(=O)O |  | male Hartley guinea pigs, anaesthetized | intravenous, 20 mg/kg over 10 min, after infusion |  | heart rate | 196 ± 0.3 beats/min
CCCCC1=NC2(CCCC2)C(=O)N1Cc1ccc(-c2ccccc2S(=O)(=O)Nc2noc(C)c2C)c(COCC)c1 |  | healthy adult volunteers, plasma | oral, 200 mg, single dose, fasted, crushed tablet |  | Cmax | 4.63 µg/mL
CC(=O)Oc1ccccc1C(=O)O |  | male Hartley guinea pigs, anaesthetized | intravenous, 3 mg/kg over 10 min, after infusion |  | heart rate | 218 ± 0.4 beats/min
CCOc1c([C@H](C)n2nc(C)c3c(N)ncnc32)cc(Cl)c(F)c1[C@@H]1CNC(=O)C1 |  | patients with DLBCL, plasma | oral, 20 mg, day 15, monotherapy |  | Tmax | 1 h
Cn1cc(Nc2nccc(-c3ccc4c(c3)CN(C3COC3)CC[C@H]4NC(=O)c3cn(C(C)(C)C)nn3)n2)cn1 | measured: NK cell count | human, clinical trial, whole blood | 150 mg twice daily, follow-up |  | percent change from baseline | 7.3%
